Assay results gathered from unrelated publications.
Each numbered part is a random draw from the data of one study; scales do not carry over between parts.
Chain of UniProt Q16620 (whole entry, looked up): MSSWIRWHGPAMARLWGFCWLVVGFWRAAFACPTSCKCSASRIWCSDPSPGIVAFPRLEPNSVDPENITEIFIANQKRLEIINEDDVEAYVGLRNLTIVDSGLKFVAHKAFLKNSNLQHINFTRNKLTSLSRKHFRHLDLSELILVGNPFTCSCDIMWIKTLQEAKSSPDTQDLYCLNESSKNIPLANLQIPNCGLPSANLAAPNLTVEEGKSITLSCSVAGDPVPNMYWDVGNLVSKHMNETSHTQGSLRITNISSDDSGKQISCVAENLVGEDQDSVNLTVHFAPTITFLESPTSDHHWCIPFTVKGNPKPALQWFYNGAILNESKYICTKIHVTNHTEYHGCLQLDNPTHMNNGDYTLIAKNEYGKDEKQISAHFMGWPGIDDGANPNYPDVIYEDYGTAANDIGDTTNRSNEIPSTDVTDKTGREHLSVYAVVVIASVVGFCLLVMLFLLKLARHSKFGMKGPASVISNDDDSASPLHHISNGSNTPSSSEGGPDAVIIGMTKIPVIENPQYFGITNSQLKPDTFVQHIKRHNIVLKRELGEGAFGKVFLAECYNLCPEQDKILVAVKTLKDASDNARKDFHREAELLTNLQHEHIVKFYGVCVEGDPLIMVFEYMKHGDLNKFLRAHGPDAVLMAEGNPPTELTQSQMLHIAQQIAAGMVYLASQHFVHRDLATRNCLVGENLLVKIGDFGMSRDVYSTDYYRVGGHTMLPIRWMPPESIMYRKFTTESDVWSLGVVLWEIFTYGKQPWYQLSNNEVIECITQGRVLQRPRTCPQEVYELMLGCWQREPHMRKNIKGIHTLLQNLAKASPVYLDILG
Chain of UniProt Q9UHD2 (whole entry, looked up): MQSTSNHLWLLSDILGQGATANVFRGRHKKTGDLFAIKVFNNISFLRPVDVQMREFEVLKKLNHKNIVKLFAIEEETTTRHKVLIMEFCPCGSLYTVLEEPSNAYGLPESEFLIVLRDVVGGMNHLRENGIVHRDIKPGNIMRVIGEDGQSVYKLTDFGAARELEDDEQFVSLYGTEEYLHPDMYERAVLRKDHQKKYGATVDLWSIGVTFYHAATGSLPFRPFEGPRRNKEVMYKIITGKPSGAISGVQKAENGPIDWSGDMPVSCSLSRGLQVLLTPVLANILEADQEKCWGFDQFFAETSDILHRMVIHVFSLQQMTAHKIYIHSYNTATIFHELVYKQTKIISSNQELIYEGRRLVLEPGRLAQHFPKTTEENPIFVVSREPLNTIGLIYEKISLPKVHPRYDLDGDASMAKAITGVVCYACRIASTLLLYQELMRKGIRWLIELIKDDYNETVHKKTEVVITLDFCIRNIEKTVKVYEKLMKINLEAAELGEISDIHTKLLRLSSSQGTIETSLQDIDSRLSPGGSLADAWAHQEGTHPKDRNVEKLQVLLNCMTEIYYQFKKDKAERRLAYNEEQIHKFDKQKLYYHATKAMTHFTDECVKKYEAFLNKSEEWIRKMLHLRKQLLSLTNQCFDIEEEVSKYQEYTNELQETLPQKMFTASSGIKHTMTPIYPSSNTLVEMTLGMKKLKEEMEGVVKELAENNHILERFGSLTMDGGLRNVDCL
Chain of UniProt Q9HC98 (whole entry, looked up): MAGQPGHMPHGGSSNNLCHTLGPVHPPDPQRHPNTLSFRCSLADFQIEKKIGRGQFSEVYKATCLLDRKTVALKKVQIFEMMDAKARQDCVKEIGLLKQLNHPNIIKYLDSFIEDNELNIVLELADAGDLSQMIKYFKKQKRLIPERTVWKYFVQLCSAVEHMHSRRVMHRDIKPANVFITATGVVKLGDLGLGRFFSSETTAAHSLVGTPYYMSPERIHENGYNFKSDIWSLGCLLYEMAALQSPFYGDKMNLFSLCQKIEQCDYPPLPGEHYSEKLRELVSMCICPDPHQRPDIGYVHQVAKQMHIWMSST
Chain of UniProt P22607 (whole entry, looked up): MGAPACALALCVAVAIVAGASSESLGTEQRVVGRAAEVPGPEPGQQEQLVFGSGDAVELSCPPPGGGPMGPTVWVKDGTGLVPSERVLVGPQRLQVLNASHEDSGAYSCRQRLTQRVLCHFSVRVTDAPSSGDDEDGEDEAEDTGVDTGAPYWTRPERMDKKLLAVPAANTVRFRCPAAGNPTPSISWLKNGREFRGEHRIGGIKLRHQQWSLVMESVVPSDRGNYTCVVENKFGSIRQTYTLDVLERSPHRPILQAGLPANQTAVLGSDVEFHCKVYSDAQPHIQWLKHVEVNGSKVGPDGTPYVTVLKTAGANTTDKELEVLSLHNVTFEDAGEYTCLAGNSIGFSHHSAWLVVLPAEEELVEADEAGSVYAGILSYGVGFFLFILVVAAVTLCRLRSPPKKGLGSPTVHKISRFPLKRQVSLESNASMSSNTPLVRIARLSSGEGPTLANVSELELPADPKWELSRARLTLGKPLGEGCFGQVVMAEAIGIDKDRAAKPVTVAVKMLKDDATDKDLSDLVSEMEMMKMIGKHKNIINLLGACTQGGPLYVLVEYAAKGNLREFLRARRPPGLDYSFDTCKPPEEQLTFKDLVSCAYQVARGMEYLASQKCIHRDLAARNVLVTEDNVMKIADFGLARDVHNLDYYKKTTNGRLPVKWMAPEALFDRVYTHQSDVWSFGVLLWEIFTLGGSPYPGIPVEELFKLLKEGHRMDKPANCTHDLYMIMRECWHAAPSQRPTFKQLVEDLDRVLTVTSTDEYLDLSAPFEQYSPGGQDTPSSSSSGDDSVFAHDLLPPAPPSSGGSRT
Chain of UniProt Q13043 (whole entry, looked up): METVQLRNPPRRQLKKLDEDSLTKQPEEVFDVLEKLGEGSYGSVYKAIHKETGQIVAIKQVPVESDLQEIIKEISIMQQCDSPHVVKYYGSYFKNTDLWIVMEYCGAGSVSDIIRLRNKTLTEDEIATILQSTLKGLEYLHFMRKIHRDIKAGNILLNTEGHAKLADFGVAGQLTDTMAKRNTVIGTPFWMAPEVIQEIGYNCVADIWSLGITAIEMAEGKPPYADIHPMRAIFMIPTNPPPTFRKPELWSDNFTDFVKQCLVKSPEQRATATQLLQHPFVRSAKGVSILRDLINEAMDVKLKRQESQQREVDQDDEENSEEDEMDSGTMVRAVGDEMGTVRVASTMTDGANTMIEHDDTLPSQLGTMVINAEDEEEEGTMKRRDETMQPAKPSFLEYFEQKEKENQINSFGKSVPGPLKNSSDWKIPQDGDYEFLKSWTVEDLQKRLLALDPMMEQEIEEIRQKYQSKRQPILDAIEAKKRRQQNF
Chain of UniProt P36896 (whole entry, looked up): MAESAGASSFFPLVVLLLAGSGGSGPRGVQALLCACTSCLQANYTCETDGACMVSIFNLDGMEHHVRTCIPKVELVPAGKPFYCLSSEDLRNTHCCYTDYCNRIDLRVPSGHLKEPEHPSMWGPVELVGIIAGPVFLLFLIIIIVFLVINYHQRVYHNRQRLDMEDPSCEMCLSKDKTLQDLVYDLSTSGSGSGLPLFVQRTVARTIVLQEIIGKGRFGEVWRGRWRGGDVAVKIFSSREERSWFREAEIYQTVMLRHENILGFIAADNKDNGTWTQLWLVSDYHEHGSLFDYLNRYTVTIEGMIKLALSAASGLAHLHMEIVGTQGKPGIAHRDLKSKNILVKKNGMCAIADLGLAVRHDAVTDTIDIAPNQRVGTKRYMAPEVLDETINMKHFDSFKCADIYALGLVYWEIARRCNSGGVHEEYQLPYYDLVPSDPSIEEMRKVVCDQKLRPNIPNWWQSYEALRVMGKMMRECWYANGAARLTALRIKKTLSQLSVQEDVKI
Chain of UniProt Q9NYY3 (whole entry, looked up): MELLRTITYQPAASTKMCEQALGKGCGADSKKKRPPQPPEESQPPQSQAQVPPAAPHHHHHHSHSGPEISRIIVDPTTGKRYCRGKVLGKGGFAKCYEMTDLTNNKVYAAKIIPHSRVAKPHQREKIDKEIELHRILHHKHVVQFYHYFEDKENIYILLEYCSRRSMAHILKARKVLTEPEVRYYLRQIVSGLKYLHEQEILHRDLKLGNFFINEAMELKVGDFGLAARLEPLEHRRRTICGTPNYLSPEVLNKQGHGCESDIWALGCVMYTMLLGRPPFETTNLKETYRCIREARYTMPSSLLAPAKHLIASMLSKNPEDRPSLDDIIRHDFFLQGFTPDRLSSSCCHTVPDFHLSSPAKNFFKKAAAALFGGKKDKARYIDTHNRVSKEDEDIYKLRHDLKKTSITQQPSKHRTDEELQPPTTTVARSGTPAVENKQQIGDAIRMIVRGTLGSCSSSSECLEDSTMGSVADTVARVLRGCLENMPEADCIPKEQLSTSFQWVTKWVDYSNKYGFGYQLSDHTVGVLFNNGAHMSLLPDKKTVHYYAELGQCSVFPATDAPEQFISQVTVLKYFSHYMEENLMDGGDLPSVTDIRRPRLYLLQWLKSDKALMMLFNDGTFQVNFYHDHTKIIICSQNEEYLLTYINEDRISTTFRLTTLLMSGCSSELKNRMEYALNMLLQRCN

Sample 1
Target: RING finger protein unkempt homolog, zinc fingers 1-6, GST-SBP tag (UNK, Homo sapiens, UniProt Q9C0B0, residues 30-357)
Chain of UniProt Q9C0B0 (30-357, looked up): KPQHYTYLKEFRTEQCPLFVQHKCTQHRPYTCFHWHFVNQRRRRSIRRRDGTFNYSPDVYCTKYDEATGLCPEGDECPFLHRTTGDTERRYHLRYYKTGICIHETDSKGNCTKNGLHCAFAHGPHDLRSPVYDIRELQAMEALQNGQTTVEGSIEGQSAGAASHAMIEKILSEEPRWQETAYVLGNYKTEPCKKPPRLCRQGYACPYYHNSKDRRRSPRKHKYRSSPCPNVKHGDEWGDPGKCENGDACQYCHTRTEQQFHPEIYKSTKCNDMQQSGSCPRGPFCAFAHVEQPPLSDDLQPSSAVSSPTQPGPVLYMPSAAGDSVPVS
Method: RNA Bind-n-Seq
Form: RNA
Sample: in vitro
Tested at: not given
Notes: RNA with constant flanks, human-mouse chimeric sites, ends assumed
Relative to: input RNA pool
Direction: higher = stronger binding
All sequences stand within: GGGAGUUCUACAGUCCGACGAUC … CAACAGAGGAUUGAGCAUCA
With `CUGUGACCACAAGAUCCUACCUGAGUGGCAGCUGAAGUUGACUCCCUCCCCUUCCCUGAACCCCCCCCCACUGCCCCCCCAUCCCCCAGUGUCGGCUGAGAUGUUGCCAGCAGACAGUUC` the bound/input enrichment was 0.661 ratio.
The bound/input enrichment of `UCGGAUGCUGUGCUGGGUCACUUUUCAUAUCCAGAUCCUUCCCAGUGGACAGAUGAAGAAUUAGGUAUCCCUCCUGAUGACGAGGACUGACACUGUAAACUCUCUGGACGAGUAGGAGCA` is reported as 0.736 ratio.
`AAAUCGUGUGUGUCCAAUAUUGAAAGUGCUUUAUCUACACUCCAGUAUGUAAGCAGUAUAGUAGUUUCUUUAGAGAAUAGGUCUGCCAUUGUAAAGUACAAUGCAAGCUCAGUCACUCCA` has a bound/input enrichment of 8.86 ratio.
For `AGAAUCUUGGGACUGUUUUACUUAAUUGGUCAUUGAUAGCUUAACAAACAUGGAGAUAAGAUUAGAAAUCUUGACAUCAACAAGUAUUAAGCAGAAAAAACCAUGGCCACGUGUCUCCUG`, the bound/input enrichment was 0.125 ratio.
With `ACCUCCCCCUCCCGCCUCACCCCACCCCCGCUUUUUGGAAAGUUUUUGGCUUUUUUUUUCCUUCCCCAUACAAAGUGAUUACAGUUUAGAGUCUAUGGGUCUAUCGAAGGGCUUGACGGA` the bound/input enrichment was 1.17 ratio.
`UUACCCGAGAACGAGGAUGAAUUGGAGAGCACCAAUAGGCGCUACACCAAGAGGGACUGCAGCACUUUCCUCAGAACUAGUGAGACGGGCAUCGUGGACCAGGUCAUGGUCACUCUCAAC` gave a bound/input enrichment of 0.2 ratio.
`AAAGAGUGGAUAGAGUGUGCACACGGGAUCGGUGGGACCCGGGCGAAAAAGGAGUGCAAGAUAGAAUUCGAUGACUUCGAAGAGUGCUUGCUUCGGUACAAAACGAUGAGGCGAAUGCAU` gave a bound/input enrichment of 0.34 ratio.
For `GAUCAUGAACCACCAUCAGAAAUGAAGAUGAGAUUACCCAGACGAGCCAAAACAGCUAGCACUAGAAAAAAGUAAACUAACCUUGCAGAGUUCCUUAAUGAAGAUACAAGUUAAGAGAGC`, the bound/input enrichment was 3.4 ratio.

Sample 2
SMILES: O=C(NS(=O)(=O)c1ccc(NCC2CCOCC2)c([N+](=O)[O-])c1)c1ccc(N2CCN(Cc3ccc(C(F)(F)F)cc3-c3ccc(Cl)cc3)CC2)cc1Oc1cnc2[nH]ccc2c1
Observed: cell-free assay
Method: competition with immobilised ligand
Tested at: 1 µM
For PLK2 (Homo sapiens, UniProt Q9NYY3): remaining binding read 100%.
For STK4 (Homo sapiens, UniProt Q13043): remaining binding read 94%.
For MET (Homo sapiens, UniProt P08581): remaining binding read 93%.
It gave 100% for remaining binding (PAK2 (Homo sapiens, UniProt Q13177)).
The remaining binding was 83% (PIK3C2B (Homo sapiens, UniProt O00750)).
For NTRK2 (Homo sapiens, UniProt Q16620): remaining binding read 88%.
It gave 100% for remaining binding (LATS2 (Homo sapiens, UniProt Q9NRM7)).
It gave 100% for remaining binding (ROCK1 (Homo sapiens, UniProt Q13464)).
For TAOK1 (Homo sapiens, UniProt Q7L7X3): remaining binding read 87%.

Sample 3
SMILES: O=C1Cc2c([nH]c3ccc(Br)cc23)-c2ccccc2N1
Observed: enzyme activity
Mode: inhibitor
Tested at: 0.5 µM
Relative to: control
TAOK2 (Homo sapiens, UniProt Q9UL54) — remaining activity: 94%.
The remaining activity was 93% (TBK1 (Homo sapiens, UniProt Q9UHD2)).
It gave 103% for remaining activity (JAK3 (Homo sapiens, UniProt P52333)).
ACVR1B (Homo sapiens, UniProt P36896) — remaining activity: 99.8%.
NEK1 (Homo sapiens, UniProt Q96PY6) — remaining activity: 95.4%.
MAP2K2 (Homo sapiens, UniProt P36507) — remaining activity: 116%.
The remaining activity was 87.7% (WEE1 (Homo sapiens, UniProt P30291)).
For NEK6 (Homo sapiens, UniProt Q9HC98): remaining activity read 100%.
The remaining activity was 93.6% (MST1R (Homo sapiens, UniProt Q04912)).
For ARAF (Homo sapiens, UniProt P10398): remaining activity read 104%.
GRK7 (Homo sapiens, UniProt Q8WTQ7) — remaining activity: 100%.
It gave 106% for remaining activity (MAP3K14 (Homo sapiens, UniProt Q99558)).
The remaining activity was 100% (MAPK3 (Homo sapiens, UniProt P27361)).
It gave 101% for remaining activity (FGFR3 (Homo sapiens, UniProt P22607)).

Sample 4
Target: Prothrombin, mature alpha-thrombin (F2, Homo sapiens, UniProt P00734)
Method: aptamer microarray, sandwich
Form: DNA with 2'F-ANA
Sample: in vitro
Tested at: 200 nM
Notes: whole 15-mer aptamer, many near background
Added: Cy3 exosite-II aptamer, 400 nM
Direction: higher = stronger binding
Sequence: GGTTGGTGTGGTTGG
`2'F-ANA at 3 4 5 6 8 9 11 12 13` — result for “mean fluorescence intensity”: 107 a.u.
`2'F-ANA at 1 3 6 9 12 14 15` — result for “mean fluorescence intensity”: 108 a.u.
`2'F-ANA at 3 6 7 8 9 12 13 15`: “mean fluorescence intensity” 1100 a.u.
Under “mean fluorescence intensity”, `2'F-ANA at 8 11 15` is recorded as 495 a.u.
`2'F-ANA at 4 5 7 9 10 13 14` — result for “mean fluorescence intensity”: 72.7 a.u.
Under “mean fluorescence intensity”, `2'F-ANA at 1 2 4 5 6 8 11 13 15` is recorded as 71.6 a.u.
`2'F-ANA at 2 6 7 8 10 11`: “mean fluorescence intensity” 106 a.u.
`2'F-ANA at 1 2 3 4 8 9 10 11 13 15` — result for “mean fluorescence intensity”: 57.4 a.u.

For quick reference, copied from above (sample 4):
`2'F-ANA at 3 4 5 6 8 9 11 12 13` — result for “mean fluorescence intensity”: 107 a.u.
`2'F-ANA at 4 5 7 9 10 13 14` — result for “mean fluorescence intensity”: 72.7 a.u.
`2'F-ANA at 1 2 3 4 8 9 10 11 13 15` — result for “mean fluorescence intensity”: 57.4 a.u.
Under “mean fluorescence intensity”, `2'F-ANA at 8 11 15` is recorded as 495 a.u.
